Measured values collected from several papers.
Numbered parts are unrelated; each lists some results of a single study.
Sequence of UniProt Q9HAZ1 (whole entry, looked up): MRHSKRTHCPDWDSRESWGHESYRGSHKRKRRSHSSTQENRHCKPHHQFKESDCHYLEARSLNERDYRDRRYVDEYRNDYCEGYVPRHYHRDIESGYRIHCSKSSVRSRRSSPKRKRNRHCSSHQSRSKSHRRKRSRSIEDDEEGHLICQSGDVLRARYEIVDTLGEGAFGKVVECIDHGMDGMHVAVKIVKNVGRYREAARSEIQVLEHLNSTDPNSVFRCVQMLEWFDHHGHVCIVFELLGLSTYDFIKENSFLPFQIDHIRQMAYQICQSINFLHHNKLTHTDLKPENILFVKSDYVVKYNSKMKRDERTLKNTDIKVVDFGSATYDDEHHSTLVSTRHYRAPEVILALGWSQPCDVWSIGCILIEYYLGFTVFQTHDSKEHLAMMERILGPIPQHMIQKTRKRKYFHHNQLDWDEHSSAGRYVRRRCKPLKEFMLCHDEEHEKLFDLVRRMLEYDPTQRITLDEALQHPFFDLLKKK
Sequence of UniProt P50750 (whole entry, looked up): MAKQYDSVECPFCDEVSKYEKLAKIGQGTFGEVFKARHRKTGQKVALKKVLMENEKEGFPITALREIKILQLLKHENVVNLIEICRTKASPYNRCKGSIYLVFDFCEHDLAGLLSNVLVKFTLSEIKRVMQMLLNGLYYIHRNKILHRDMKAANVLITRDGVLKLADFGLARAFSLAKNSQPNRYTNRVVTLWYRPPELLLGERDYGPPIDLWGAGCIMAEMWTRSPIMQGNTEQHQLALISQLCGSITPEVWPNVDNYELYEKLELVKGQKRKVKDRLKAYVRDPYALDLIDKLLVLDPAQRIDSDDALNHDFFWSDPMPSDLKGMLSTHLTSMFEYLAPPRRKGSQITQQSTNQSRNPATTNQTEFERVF
Sequence of UniProt Q12851 (whole entry, looked up): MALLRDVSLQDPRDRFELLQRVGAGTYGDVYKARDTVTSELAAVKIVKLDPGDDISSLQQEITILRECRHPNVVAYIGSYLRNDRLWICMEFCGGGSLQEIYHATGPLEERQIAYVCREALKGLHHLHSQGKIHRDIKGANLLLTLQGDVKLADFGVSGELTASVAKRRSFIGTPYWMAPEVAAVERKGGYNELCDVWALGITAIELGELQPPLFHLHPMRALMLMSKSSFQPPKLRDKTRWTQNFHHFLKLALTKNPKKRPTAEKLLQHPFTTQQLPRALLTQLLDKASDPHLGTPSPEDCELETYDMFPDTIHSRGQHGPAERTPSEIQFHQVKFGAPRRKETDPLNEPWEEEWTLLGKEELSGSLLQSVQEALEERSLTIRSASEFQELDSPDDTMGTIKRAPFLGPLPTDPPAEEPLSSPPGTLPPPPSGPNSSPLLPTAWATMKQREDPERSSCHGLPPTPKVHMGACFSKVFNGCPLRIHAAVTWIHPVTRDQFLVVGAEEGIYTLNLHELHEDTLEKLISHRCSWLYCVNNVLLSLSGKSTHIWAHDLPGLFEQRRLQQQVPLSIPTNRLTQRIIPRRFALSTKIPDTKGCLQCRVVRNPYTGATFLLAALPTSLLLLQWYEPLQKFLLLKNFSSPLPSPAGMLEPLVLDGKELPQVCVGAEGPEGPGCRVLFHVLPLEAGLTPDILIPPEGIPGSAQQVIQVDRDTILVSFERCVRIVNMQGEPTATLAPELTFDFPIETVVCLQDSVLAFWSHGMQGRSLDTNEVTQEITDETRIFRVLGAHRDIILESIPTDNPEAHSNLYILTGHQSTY
Sequence of UniProt Q15303 (whole entry, looked up): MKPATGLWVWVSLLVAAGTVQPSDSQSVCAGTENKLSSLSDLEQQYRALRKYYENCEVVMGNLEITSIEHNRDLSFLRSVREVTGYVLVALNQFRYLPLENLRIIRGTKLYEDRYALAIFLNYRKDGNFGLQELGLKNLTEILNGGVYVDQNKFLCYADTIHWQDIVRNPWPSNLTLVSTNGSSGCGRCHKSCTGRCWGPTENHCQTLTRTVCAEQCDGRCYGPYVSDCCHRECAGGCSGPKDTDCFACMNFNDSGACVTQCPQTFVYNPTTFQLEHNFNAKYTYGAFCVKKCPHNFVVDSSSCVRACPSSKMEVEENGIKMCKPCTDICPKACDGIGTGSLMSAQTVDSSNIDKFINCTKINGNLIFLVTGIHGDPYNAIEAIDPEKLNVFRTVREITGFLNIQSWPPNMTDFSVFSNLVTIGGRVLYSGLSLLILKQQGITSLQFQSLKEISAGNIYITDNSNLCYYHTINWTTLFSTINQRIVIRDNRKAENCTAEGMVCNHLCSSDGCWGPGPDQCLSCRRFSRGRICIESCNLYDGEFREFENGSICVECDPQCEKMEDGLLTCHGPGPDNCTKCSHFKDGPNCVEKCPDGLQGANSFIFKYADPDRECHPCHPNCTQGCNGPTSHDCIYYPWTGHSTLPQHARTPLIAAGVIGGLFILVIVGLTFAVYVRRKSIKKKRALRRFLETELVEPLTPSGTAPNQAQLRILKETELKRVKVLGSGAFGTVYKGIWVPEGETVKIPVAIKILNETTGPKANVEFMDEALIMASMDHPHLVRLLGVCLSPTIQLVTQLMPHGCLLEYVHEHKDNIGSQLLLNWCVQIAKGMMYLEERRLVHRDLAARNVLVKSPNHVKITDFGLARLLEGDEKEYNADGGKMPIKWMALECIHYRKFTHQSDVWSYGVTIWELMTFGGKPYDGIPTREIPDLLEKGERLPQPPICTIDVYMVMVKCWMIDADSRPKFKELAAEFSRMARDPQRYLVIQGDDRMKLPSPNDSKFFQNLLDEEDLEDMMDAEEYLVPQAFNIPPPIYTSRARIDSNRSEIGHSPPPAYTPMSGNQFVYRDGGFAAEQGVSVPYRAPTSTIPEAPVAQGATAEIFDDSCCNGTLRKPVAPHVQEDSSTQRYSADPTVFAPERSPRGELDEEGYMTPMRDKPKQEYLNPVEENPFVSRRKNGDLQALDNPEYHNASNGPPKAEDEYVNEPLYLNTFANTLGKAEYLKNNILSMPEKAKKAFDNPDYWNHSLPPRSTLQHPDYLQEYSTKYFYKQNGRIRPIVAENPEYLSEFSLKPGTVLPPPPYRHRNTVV
Sequence of UniProt O15264 (whole entry, looked up): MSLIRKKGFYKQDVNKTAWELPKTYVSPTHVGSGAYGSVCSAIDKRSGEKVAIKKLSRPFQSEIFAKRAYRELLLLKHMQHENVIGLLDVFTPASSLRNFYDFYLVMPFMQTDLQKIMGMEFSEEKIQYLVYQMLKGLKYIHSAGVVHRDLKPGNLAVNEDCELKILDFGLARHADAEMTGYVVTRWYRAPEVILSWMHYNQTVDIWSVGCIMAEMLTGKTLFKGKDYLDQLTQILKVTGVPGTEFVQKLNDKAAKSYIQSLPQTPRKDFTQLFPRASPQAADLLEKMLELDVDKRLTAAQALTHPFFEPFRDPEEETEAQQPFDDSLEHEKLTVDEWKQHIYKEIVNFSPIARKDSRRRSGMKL
Sequence of UniProt Q8WU08 (whole entry, looked up): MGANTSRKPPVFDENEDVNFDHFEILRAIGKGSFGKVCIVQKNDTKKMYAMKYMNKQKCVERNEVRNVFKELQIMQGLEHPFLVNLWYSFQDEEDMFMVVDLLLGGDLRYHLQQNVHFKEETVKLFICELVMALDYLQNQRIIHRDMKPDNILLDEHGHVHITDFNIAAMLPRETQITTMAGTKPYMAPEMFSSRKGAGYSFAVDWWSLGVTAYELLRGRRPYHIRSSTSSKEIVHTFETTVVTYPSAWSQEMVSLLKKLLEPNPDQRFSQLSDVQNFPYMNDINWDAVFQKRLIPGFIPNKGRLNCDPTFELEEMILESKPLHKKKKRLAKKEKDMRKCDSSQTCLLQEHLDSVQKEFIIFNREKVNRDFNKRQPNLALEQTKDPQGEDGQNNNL
Sequence of UniProt Q16539 (whole entry, looked up): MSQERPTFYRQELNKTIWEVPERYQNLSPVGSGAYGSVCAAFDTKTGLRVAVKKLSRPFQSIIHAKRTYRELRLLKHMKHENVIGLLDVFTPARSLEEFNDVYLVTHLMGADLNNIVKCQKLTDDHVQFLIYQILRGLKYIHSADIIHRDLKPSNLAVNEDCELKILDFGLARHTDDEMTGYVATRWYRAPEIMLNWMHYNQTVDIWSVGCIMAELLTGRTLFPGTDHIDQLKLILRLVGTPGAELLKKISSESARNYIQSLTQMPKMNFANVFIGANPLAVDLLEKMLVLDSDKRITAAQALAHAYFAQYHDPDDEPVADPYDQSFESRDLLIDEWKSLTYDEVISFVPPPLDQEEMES
Sequence of UniProt Q9C098 (whole entry, looked up): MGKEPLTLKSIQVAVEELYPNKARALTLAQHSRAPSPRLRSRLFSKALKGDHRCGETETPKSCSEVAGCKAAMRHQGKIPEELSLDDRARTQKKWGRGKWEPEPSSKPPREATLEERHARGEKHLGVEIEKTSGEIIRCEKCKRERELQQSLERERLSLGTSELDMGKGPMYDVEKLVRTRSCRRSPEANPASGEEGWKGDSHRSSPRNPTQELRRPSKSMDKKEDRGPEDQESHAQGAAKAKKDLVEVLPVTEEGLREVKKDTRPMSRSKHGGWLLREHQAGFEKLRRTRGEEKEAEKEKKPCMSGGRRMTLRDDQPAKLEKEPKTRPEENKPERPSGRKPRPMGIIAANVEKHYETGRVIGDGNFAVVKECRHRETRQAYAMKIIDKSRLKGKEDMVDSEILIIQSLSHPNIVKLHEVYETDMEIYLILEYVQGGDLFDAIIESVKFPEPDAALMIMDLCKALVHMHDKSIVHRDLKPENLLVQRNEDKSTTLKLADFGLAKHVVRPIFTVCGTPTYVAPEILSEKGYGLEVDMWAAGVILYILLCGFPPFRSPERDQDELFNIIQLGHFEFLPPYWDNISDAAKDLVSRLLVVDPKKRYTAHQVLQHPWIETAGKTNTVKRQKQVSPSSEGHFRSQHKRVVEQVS

Series 1 — cell line: HaCaT; concentration: 100 µM; time: 60 h
For `C[C@H](O)C(=O)Nc1c(I)c(C(=O)NC(CO)CO)c(I)c(C(=O)NC(CO)CO)c1I`, the viability was 150%.
The viability of `CC(=O)OCC(=O)[C@H]1CC[C@H]2[C@@H]3CCC4=CC(=O)CC[C@]4(C)[C@H]3CC[C@]12C` is reported as 86.3%.
The viability of `Nc1nc(CC(=O)Nc2ccc(CCNC[C@H](O)c3ccccc3)cc2)cs1` is reported as 95.7%.
For `COc1ccc([C@@H]2CC(=O)c3c(O)cc(O[C@@H]4O[C@H](CO[C@@H]5O[C@@H](C)[C@H](O)[C@@H](O)[C@H]5O)[C@@H](O)[C@H](O)[C@H]4O)cc3O2)cc1OC`, the viability was 151%.
The viability of `C=CCc1cc(OC)c(O)c(C(=O)NCCO)c1` is reported as 141%.
For `CO[C@H]1/C=C/O[C@@]2(C)Oc3c(C)c(O)c4c(O)c(c(/C=N/N5CCN(C6CCCC6)CC5)c(O)c4c3C2=O)NC(=O)/C(C)=C\C=C\[C@H](C)[C@H](O)[C@@H](C)[C@@H](O)[C@@H](C)[C@H](OC(C)=O)[C@@H]1C`, the viability was 62%.
The viability of `COc1ccc(-c2cc(=O)c3c(O)cc(O[C@@H]4O[C@H](CO[C@@H]5O[C@@H](C)[C@H](O)[C@@H](O)[C@H]5O)[C@@H](O)[C@H](O)[C@H]4O)cc3o2)cc1O` is reported as 56.5%.
The viability of `CC(=O)N[C@H]1[C@H]([C@H](O)[C@H](O)CO)OC(C(=O)O)=C[C@@H]1N=C(N)N` is reported as 142%.

Series 2 — concentration: 1 µM
SMILES: COc1ccc2[nH]c3c4[nH]c5ccc(OC)cc5c4c4c(c3c2c1)C(=O)NC4=O
For ERBB4 (Homo sapiens, UniProt Q15303); competitive binding panel; reference: vehicle: remaining binding read 59%.
For NEK2 (Homo sapiens, UniProt P51955); competitive binding panel; reference: vehicle: remaining binding read 78%.
STK32A (Homo sapiens, UniProt Q8WU08); competitive binding panel, refers to: YANK1; reference: vehicle — remaining binding: 69%.
The remaining binding was 11% (PDGFRA (Homo sapiens, UniProt P16234); competitive binding panel; reference: vehicle).
For DCLK3 (Homo sapiens, UniProt Q9C098); competitive binding panel, refers to: DCAMKL3; reference: vehicle: remaining binding read 19%.
It gave 75% for remaining binding (MAP4K2 (Homo sapiens, UniProt Q12851); competitive binding panel; reference: vehicle).
MAP3K12 (Homo sapiens, UniProt Q12852); competitive binding; DLK — remaining binding: 77%.

Series 3 — effect on: enzyme activity; mode: inhibitor; concentration: 0.5 µM; reference: control
Structure (SMILES): COc1cc2ncnc(N3CCN(C(=O)Nc4ccc(Oc5ccccc5)cc4)CC3)c2cc1OC
TXK (Homo sapiens, UniProt P42681) — remaining activity: 99.3%.
It gave 92.3% for remaining activity (Cyclin-dependent kinase 1, with cyclin A (CDK1, Homo sapiens, UniProt P06493)).
It gave 91.8% for remaining activity (PLK3 (Homo sapiens, UniProt Q9H4B4)).
The remaining activity was 81% (MAPK14 (Homo sapiens, UniProt Q16539)).
For Cyclin-dependent kinase 9, with cyclin K (CDK9, Homo sapiens, UniProt P50750): remaining activity read 83.6%.
For MARK4 (Homo sapiens, UniProt Q96L34): remaining activity read 76.5%.
The remaining activity was 65.6% (CLK4 (Homo sapiens, UniProt Q9HAZ1)).
It gave 86% for remaining activity (ROCK1 (Homo sapiens, UniProt Q13464)).
The remaining activity was 100% (NEK3 (Homo sapiens, UniProt P51956)).
It gave 87.6% for remaining activity (AKT2 (Homo sapiens, UniProt P31751)).
It gave 99.6% for remaining activity (MINK1 (Homo sapiens, UniProt Q8N4C8)).
It gave 91.2% for remaining activity (MAP2K1 (Homo sapiens, UniProt Q02750)).
It gave 95.1% for remaining activity (DDR2 (Homo sapiens, UniProt Q16832)).
For GRK4 (Homo sapiens, UniProt P32298): remaining activity read 94.7%.
KDR (Homo sapiens, UniProt P35968) — remaining activity: 82.7%.

Series 4 — effect on: cell-free assay; method: competition with immobilised ligand; concentration: 0.1 µM
SMILES: Nc1c(C(=O)NCc2ccc(C(=O)NCCCC3CCCCC3)cc2)cnn1-c1ccccc1
It gave 97% for remaining binding (NTRK3 (Homo sapiens, UniProt Q16288)).
It gave 100% for remaining binding (MAPK13 (Homo sapiens, UniProt O15264)).
For CLK4 (Homo sapiens, UniProt Q9HAZ1): remaining binding read 96%.
For ACVR2A (Homo sapiens, UniProt P27037): remaining binding read 100%.
For EGFR (Homo sapiens, UniProt P00533, del747-750/T751S): remaining binding read 84%.
FLT1 (Homo sapiens, UniProt P17948) — remaining binding: 100%.

Repeated from above (series 3):
It gave 95.1% for remaining activity (DDR2 (Homo sapiens, UniProt Q16832)).
The remaining activity was 65.6% (CLK4 (Homo sapiens, UniProt Q9HAZ1)).
KDR (Homo sapiens, UniProt P35968) — remaining activity: 82.7%.
It gave 92.3% for remaining activity (Cyclin-dependent kinase 1, with cyclin A (CDK1, Homo sapiens, UniProt P06493)).
